Measurements from different studies.
Each numbered part is a random draw from the data of one study; scales do not carry over between parts. Changes are numbered by the printed parent chain.

Set 1
Target: Sal-like protein 4, full length isoform B (SALL4, Homo sapiens, UniProt Q9UJQ4-2, residues 1-616)
Technique: universal PBM
Form: double-stranded DNA, one strand shown
Sample: in vitro
Concentration: not given
Setting: 8-mer, flanks averaged, mean of replicates
Reading: higher = stronger binding
Construct (chain): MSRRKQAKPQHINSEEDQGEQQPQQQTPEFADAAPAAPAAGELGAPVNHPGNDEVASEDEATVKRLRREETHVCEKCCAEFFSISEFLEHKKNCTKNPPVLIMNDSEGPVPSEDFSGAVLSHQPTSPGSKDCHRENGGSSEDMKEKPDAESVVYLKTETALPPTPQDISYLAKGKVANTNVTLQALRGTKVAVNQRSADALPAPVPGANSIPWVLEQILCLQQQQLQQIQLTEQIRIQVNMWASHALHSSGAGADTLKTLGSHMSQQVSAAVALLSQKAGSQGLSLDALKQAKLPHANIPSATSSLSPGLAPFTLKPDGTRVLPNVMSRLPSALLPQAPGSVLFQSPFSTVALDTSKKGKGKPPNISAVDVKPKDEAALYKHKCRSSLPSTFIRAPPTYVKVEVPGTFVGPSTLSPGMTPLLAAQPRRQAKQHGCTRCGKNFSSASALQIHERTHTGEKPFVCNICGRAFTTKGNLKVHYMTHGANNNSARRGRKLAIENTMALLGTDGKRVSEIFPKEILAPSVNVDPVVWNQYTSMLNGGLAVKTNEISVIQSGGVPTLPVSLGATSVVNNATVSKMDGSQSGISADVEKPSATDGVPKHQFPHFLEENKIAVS
Strand | E-score
CAATACTG | 0.0963
CAGCGTAG | -0.193
AATAGTTG | 0.28
TGCATCCA | -0.0553
GTTTGACA | 0.139
AGGGACTA | -0.113
CCACCGCC | -0.308
CCAACGCA | -0.0442
CCACGGGC | -0.385
AGGCATCA | -0.048
AGGTATGA | 0.179
CCCTACTA | -0.0906
AGCATACG | 0.0516
TATCAGCA | 0.0559
ACGGTTTG | -0.2
CCATTGCG | -0.212
CCCAGGAC | -0.404
ACCGGAGA | -0.111
GCATATGC | 0.112
ATACCGGG | -0.0424
ATAGTCTA | 0.0933

Set 2
Target: CCND2, cyclin fold, Cln2 fusion (human)
Technique: yeast growth competition, sequencing
Sample: yeast
Setting: weak parent motif
Baseline: not given
Reading: higher = stronger binding
Parent: CCP110 docking peptide (human); EKVKRRLDLDIDG
Variant | normalised enrichment score
D10A | 0.588
L9F | 0.784
R6A | 0.0899
K2A | 0.0987
R5A | 0.0837
R5K L9F | 0.281
D8A | -0.068
L9A | 0.000846
R5A L7A | 0.31
V3A | 0.14

Set 3
Target: Histone acetyltransferase KAT6A, winged helix 1, GST fusion (KAT6A, Homo sapiens, UniProt Q92794, residues 1-85)
Technique: protein binding microarray
Form: double-stranded DNA, one strand shown
Sample: in vitro
Concentration: not given
Setting: 8-mer, flanks averaged, mean of 2 arrays, mostly near background
Baseline: not given
Reading: higher = stronger binding
Residues (chain): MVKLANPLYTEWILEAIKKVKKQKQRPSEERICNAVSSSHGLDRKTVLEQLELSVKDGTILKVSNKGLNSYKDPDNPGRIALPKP
Strand | E-score
AAAACCTT | -0.12
GATCAATA | -0.237
TACTGAGA | -0.0522
CGTATTGC | 0.215
CAATAGAA | -0.06
ATCAGGCA | -0.262
ACGACGCG | 0.256
AGGGGCAG | -0.171
TGACCACA | -0.278
GATACAAA | -0.0427
ACTGGCTA | -0.199
AACCGATT | -0.00369
CCGCCGCG | 0.472
GAGCGTAA | 0.226
CGTTGAAG | -0.102
ACCCGTCT | 0.214
CCGTTGAA | -0.0298
GGAGAGGA | -0.125
CGAGATCG | -0.086
CCCGATGA | 0.168
ATCTGAAG | -0.179
AGGTGCGC | 0.246
AATGTTCG | -0.0128
ATCTTCTG | 0.00532
TCAAGTAA | -0.142

Set 4
Target: Interferon regulatory factor 3, full length, phosphomimetic (IRF3, Homo sapiens, UniProt Q14653, residues 1-427, S386D/S396D/S398D/S402D/T404D/S405D)
Technique: protein-binding microarray
Form: double-stranded DNA, one strand shown
Sample: in vitro
Concentration: 2540 nM top
Setting: 60-bp whole probe
With: salmon DNA 0.4 mg/ml
Baseline: random background probes
Reading: higher = stronger binding
All sequences stand within: GCCTAGCAC … GTCTTGATTCGCTTGACGCTGCTG
Construct (chain): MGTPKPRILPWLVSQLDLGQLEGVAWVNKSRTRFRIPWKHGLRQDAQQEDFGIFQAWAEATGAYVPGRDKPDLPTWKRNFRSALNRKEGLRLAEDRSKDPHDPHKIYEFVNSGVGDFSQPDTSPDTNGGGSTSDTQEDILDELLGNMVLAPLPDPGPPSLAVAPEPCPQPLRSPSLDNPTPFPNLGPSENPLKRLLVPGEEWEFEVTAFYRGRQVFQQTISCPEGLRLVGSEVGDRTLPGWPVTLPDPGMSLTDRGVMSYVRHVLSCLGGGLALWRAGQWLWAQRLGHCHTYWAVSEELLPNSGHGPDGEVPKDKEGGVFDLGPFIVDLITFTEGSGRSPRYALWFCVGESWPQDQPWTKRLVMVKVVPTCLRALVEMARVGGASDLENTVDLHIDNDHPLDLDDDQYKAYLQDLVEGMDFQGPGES
Strand | fitted relative affinity
TCATTTTGGTTTCTGGTACTGTGCTAG | 3.01 z-score
GGCGATTTCGGGTATCGAGACGTGCTA | 1.64 z-score
GACGATATCGAGACTGGAGACGTGCTA | 0.119 z-score
ATGCTTCTGGTCTTCTGGGCGTGCTAG | -0.343 z-score
TTAGGTATCGTCTTTCGGTTAGTGCTA | 1.41 z-score
TGAGAACTGAGACTGGATTAGTGCTAG | -0.466 z-score
GACGGTCGCCTTATCCTGACGTGCTAG | 0.729 z-score
TCAAATTTCTTCCTCCCACTGTGCTAG | 0.343 z-score
GTCATTTTCTCTTATTCTAAGTGCTAG | 2.76 z-score
ATGTGTTTACAGATGTTTTTGTGCTAG | 0.166 z-score
TTAGGCCTGGGGTTTCGGTTAGTGCTA | 1.9 z-score
CACAGTCTGAGATCCAGAAGGTGCTAG | 0.414 z-score
CCCACCTCTCACGGGCTTGTGTGCTAG | 0.551 z-score
TGTGTCCTGGCTTTGACTCTGTGCTAG | -0.552 z-score
TCATATTTTTTTCCAGAACTGTGCTAG | 0.756 z-score
TTAGAAGTGGGGACTGGATTAGTGCTA | -0.695 z-score

Set 5
Target: RNA binding protein fox-1 homolog 2, RRM domain, GST-SBP tag (RBFOX2, Homo sapiens, UniProt O43251-10, residues 100-194)
Technique: RNA Bind-n-Seq
Form: RNA
Sample: in vitro
Concentration: 365 nM
Setting: natural RNA segment, single round, ends assumed
Baseline: no-protein control
Reading: higher = stronger binding
All sequences stand within: GGGAGUUCUACAGUCCGACGAUC … UGGAAUUCUCGGGUGCCAA
Construct (chain): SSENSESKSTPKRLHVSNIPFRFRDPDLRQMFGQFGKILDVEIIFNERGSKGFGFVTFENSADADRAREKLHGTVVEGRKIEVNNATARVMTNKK
Strand | RBNS enrichment (R)
UGUCAACCCAGACAACUCAGUCCUUUCAUGUAAAUUUUUGGGCAAGAGAAGUCUGCUUUGACUGCCUUGCCUGACCAAAUUAAAUAAAUAGUUGCCAGAUCUCUACUUUU | 0.277
GAAAGCAUUUACCUUAUUUAUAUACCUGAAUGUUCCUACUACACAAAUAAACAUAUAUUAAAUUCUAGAUCAUGUGUGGUUUUCGAUGGUGGGGGUGGCGGAAGGCCAGG | 0.435
AAAUUAGGGAAGUGGAGGAAAUUAUUUGGAAUGUGAUCUAAGUUUUUGUUUUUUUUUAAUGUGUCAACUUGGGCUCAGGCUGUAGUUGUGUUGCGUGCCUGCUUAGCAUA | 3.79
GAGAAACCGUGCUCUCUAAGUUUGUUCUCUGCUUUGACCCCACUUUUAUAGCUGUCUUUGCAUCUUUGAUAAAACUUCCACUUGAAUUUGGCACUGAUAAUAAUUAUUGC | 0.559
UUUAUACGGAUUUCGGAUUUCUACCCACGUUUCCUCACUCUGUUUUCUAUAUAUUCUAUAUAAAUAUAUAUUGUGGAUGGCCGCCAUGGCGAGUGGUGGCUGGGGCUUUU | 0.587
UCCCCAGGACUCUCGUAGGAAAUAAAUAGCCCUUUCAAGAUUCCUCAGCUGCCUCACCCCCUGCACAUGUGCCUGGGGUGUGGCCUAGAAGGGAGUGAUGUUCUUACUCU | 0.199
CUGCCCUACAAAAUGCUCUUCAUUGGUUGUCUCUGUGAGAGCACUGUCCCCACCCAACCUGUCACAACGGCCAGAACCAUACACCAGAGACACACUGGCAGGUUAGGCAG | 0.416
ACGCCCACCCCCCACCCACCGCAAGCUUUGAGUGGGACACCAUUCUGAAUUUUUUUUCUGAAUUUUUUUUUAACAUCUCUUUCUCAUUAGAGAUCUGAAAACUCAUUAGA | 0.879

Excerpt of the above (set 1):
Strand | E-score
ACGGTTTG | -0.2
AGGTATGA | 0.179
TATCAGCA | 0.0559
CCCTACTA | -0.0906
CCCAGGAC | -0.404
CCATTGCG | -0.212
AGGGACTA | -0.113
AGGCATCA | -0.048
CCACCGCC | -0.308
GCATATGC | 0.112
